Results gathered from unrelated publications.
Numbers after ± are the reported error.

Cc1noc(C)c1Cn1cc(N2C(=O)CN(Cc3cccc(OS(=O)(=O)O)c3)C2=O)cn1 — Cmax (rat Sprague-Dawley male, plasma; oral, 30 mg/kg of parent drug): 4620 ng/mL
CCCC(CCC)NC(=O)c1ccc(OC2OC(C(=O)O)C(O)C(O)C2O)c(OC)c1 (centres unmarked) — Cmax ratio (male Sprague-Dawley rats, plasma; oral, 200 mg/kg of parent drug; relative to: 200 over 20 mg/kg dose): 3.8
O=c1nc(NO)ccn1[C@@H]1O[C@H](CO)[C@@H](O)[C@H]1O — Cmax ratio (male Wistar rats, plasma; oral, 30 mg/kg; relative to: CFA-arthritic over normal rats): 1.1 fold
CCCC(CCC)NC(=O)c1ccc(O)c(O)c1 — Cmax ratio (female Sprague-Dawley rats, plasma; oral, 50 mg/kg of parent drug; relative to: 50 over 20 mg/kg dose): 1.63
CC/C=C\C/C=C\C/C=C\C/C=C\C/C=C\CCCCOC(CC)C(=O)O (centres unmarked) — Cmax ratio (Wistar rat, male, portal vein blood, mesenteric lymph; oral, 100 mg/kg; relative to: portal vein over mesenteric lymph): ~2 fold
Cc1noc(C)c1Cn1cc(N2C(=O)CN(Cc3cccc(O[C@@H]4O[C@H](C(=O)O)[C@@H](O)[C@H](O)[C@H]4O)c3)C2=O)cn1 — Cmax (rat Sprague-Dawley male, plasma; oral, 30 mg/kg of parent drug): 8050 ng/mL
COc1ccnc(C[S+]([O-])c2nc3cc(-n4cccc4)ccc3[nH]2)c1C (centres unmarked) — Cmax ratio (male Sprague Dawley rats, plasma; oral, 10 mg/kg ilaprazole racemate; relative to: compound over R-ilaprazole): 1.28
CCCC(CCC)NC(=O)c1ccc(OC2OC(C(=O)O)C(O)C(O)C2O)c(O)c1 (centres unmarked) — Cmax ratio (male Sprague-Dawley rats, plasma; oral, 200 mg/kg of parent drug; relative to: 200 over 20 mg/kg dose): 3.98
Cc1ncc2c(n1)CN(C(=O)Nc1nc(-c3cccs3)ccc1N)C2 — Cmax (male Sprague-Dawley rats; oral, 45 mg/kg daily, day 14): 3780 ± 1450 ng/mL
N[C@@H](COc1ccccc1C(F)(F)F)c1ccccc1 — Cmax (male Sprague-Dawley rat, serum; intravenous, 5 mg/kg): 249 ± 2 ng/mL
CCCC[C@H](NC(=O)[C@H](CC(C)C)N(C)C(=O)CNC(=O)[C@@H](NC(=O)[C@H](Cc1ccccc1)NC(=O)[C@H](CCCCN)NC(=O)[C@@H](N)CC(=O)O)C(C)C)C(N)=O — Cmax ratio (rat; 100 µg/kg IV, 300 µg/kg SC; relative to: IV over SC): 4
OC1(C(F)(F)F)CCN(c2nc(Nc3ccnc(C(F)(F)F)c3)nc(-c3cccc(C(F)(F)F)n3)n2)C1 (centres unmarked) — Cmax accumulation ratio (Sprague-Dawley rat, both sexes, plasma; oral, 5 mg/kg daily for 14 days; relative to: day 14 over day 1): 2.4
CCCC(CCC(=O)O)NC(=O)c1ccc2c(c1)OCO2 (centres unmarked) — Cmax ratio (male Sprague-Dawley rats, plasma; oral, 50 mg/kg of parent drug; relative to: 50 over 20 mg/kg dose): 2.34
COc1ccc(N2CCOCC2)c2sc(NC(=O)c3ccnc(CN4CCCC4)c3)nc12 — Cmax (Wistar rat, plasma (total); oral, 15 mg/kg/day, 14 days): 6380 ng/mL

Some of these lines once more:
CCCC(CCC)NC(=O)c1ccc(O)c(O)c1 — Cmax ratio (female Sprague-Dawley rats, plasma; oral, 50 mg/kg of parent drug; relative to: 50 over 20 mg/kg dose): 1.63
Cc1noc(C)c1Cn1cc(N2C(=O)CN(Cc3cccc(OS(=O)(=O)O)c3)C2=O)cn1 — Cmax (rat Sprague-Dawley male, plasma; oral, 30 mg/kg of parent drug): 4620 ng/mL
